Results of several laboratories.
Numbered parts are unrelated; each lists some results of a single study.
Chain of UniProt Q9H422 (whole entry, looked up): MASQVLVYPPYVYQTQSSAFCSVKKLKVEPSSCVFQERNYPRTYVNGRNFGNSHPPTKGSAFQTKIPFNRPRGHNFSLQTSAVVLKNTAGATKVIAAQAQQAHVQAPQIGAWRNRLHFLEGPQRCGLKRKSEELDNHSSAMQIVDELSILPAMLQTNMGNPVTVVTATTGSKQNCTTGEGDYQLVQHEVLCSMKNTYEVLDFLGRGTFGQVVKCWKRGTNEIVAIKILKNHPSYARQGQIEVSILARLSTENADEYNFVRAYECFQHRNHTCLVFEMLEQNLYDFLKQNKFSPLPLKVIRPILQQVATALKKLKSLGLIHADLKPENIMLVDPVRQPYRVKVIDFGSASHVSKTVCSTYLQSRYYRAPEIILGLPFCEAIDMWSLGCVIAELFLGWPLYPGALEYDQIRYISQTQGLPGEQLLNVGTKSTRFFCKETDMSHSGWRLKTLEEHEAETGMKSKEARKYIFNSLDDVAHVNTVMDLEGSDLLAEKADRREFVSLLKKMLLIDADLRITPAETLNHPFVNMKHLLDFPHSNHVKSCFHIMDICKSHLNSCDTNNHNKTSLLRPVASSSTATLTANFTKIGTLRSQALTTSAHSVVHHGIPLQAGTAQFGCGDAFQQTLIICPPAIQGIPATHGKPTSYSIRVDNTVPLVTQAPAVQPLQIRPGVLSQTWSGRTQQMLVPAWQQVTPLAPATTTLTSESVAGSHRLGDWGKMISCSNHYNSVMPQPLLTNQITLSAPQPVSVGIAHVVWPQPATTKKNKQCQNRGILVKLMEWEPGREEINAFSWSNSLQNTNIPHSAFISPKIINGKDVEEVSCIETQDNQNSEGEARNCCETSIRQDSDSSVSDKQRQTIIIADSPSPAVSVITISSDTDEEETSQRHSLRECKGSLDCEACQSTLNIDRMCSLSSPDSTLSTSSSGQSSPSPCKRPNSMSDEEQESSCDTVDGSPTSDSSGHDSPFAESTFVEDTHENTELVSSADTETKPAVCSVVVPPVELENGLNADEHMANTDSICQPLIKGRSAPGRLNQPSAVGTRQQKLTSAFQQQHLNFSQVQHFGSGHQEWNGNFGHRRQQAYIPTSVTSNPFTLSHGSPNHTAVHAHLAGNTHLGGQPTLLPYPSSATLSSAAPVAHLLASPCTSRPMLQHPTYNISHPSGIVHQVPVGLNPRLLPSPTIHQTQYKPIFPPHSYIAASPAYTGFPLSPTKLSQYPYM
Chain of UniProt P57078 (whole entry, looked up): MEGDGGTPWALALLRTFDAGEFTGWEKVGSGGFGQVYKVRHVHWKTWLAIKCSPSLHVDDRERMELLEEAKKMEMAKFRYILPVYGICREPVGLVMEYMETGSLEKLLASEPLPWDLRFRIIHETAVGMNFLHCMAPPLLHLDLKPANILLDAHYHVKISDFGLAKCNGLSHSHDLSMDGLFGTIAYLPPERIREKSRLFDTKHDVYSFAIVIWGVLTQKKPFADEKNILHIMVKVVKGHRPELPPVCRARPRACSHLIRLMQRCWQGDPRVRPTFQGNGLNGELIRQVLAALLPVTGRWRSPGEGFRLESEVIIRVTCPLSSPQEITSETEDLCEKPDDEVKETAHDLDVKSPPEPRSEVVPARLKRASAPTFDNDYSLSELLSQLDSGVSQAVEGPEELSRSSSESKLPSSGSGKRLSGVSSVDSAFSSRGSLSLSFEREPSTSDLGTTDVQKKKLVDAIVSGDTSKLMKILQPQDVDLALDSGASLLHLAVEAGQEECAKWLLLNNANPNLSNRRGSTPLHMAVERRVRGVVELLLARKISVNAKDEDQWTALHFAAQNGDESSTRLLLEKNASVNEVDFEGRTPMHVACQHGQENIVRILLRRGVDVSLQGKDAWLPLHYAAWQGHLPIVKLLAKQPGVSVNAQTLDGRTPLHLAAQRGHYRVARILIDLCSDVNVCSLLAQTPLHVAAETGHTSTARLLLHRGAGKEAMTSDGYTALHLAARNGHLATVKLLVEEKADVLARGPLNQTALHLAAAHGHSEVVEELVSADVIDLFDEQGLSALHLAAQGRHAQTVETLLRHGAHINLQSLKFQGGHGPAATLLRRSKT
Chain of UniProt Q9Y616 (whole entry, looked up): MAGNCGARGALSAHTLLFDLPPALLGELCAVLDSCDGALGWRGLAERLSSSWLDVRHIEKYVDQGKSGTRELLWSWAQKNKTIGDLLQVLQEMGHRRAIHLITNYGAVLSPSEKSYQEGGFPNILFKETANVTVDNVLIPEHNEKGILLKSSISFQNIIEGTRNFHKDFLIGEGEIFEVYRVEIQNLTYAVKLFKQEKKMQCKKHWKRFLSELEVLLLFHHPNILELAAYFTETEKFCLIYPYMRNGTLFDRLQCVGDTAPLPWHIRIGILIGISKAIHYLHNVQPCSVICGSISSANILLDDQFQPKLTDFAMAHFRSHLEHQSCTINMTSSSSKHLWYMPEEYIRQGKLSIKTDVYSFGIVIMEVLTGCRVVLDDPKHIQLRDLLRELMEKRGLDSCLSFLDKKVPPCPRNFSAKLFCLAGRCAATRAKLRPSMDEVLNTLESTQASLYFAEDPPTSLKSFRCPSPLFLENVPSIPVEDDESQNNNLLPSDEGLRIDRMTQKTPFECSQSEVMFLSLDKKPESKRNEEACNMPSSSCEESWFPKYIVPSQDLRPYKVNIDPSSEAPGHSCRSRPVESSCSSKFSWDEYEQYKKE
Chain of UniProt P57059 (whole entry, looked up): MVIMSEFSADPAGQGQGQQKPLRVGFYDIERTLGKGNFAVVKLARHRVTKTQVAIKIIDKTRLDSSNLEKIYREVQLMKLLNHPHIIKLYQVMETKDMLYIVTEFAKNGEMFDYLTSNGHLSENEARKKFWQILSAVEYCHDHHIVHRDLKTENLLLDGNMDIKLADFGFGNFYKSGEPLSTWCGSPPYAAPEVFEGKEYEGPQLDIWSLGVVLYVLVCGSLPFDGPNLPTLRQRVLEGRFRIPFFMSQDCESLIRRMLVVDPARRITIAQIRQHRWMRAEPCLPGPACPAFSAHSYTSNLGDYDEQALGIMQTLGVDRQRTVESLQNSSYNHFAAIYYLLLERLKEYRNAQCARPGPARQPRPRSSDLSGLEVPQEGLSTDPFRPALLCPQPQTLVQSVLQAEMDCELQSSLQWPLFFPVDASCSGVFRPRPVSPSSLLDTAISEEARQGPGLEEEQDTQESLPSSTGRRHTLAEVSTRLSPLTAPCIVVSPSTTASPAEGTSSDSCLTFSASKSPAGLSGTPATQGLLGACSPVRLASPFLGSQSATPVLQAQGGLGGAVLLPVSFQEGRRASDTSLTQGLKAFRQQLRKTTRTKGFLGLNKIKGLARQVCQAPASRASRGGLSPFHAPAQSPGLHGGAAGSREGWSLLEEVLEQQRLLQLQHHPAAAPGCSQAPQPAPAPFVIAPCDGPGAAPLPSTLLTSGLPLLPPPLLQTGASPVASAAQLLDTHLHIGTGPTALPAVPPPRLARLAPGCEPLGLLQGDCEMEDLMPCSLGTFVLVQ
Chain of UniProt Q96GD4 (whole entry, looked up): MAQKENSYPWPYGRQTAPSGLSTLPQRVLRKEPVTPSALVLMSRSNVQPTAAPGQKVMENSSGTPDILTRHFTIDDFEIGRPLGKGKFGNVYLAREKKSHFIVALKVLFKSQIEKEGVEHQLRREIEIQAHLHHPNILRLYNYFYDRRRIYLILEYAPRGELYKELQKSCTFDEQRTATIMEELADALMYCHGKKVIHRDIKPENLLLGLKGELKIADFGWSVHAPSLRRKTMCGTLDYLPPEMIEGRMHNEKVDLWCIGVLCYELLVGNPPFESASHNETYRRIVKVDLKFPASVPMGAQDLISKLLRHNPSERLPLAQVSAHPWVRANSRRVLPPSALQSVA

Set 1
Target: Serine/threonine-protein kinase Sgk2 (SGK2, Homo sapiens, UniProt Q9HBY8)
Observed: enzyme activity
Mode: inhibitor
Tested at: 0.5 µM
Baseline: control
Measurement: remaining activity
Residues (Q9HBY8 1-367): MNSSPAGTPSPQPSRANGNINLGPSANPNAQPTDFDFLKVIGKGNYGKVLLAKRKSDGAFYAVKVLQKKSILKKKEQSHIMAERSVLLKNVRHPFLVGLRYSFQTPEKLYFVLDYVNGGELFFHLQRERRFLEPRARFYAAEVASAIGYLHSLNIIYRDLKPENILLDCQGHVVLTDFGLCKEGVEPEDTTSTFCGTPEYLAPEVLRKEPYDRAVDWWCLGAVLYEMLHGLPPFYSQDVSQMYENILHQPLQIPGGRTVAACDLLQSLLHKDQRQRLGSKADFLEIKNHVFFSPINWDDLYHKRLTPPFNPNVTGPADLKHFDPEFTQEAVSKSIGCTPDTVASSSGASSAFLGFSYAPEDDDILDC
Structure (SMILES) = OCC(O)CCON=C1C(c2c(O)[nH]c3ccccc23)=Nc2ccccc21 (centres unmarked); value = 75.8%
Structure (SMILES) = O=C1NC(=O)C(c2cn(CCCn3ccnc3)c3ccccc23)=C1Nc1ccccc1; value = 82.4%
Structure (SMILES) = COc1ccc(C(=O)Nc2sc3c(c2C(N)=O)CCCC3)cc1OC; value = 100%
Structure (SMILES) = O=C1NC(=O)C(c2cn(CCCO)c3ncccc23)=C1c1cnccn1; value = 96.9%
Structure (SMILES) = Cc1ccc(NC(=O)c2ccc(CN3CCN(C)CC3)cc2)cc1Nc1nc(-c2cccnc2)cs1; value = 106%
Structure (SMILES) = COc1ccc(CNC(=O)Nc2ncc([N+](=O)[O-])s2)cc1; value = 99.5%
Structure (SMILES) = O=C(O)c1ccc2c3c1cccc3c(=O)n1c3ccccc3nc21; value = 103%
Structure (SMILES) = COc1cc2ncnc(Nc3ccc(Oc4ccccc4)cc3)c2cc1OC; value = 113%
Structure (SMILES) = Nc1ccc2ncnc(NCCc3ccc(Oc4ccccc4)cc3)c2c1; value = 99.6%
Structure (SMILES) = O=C(Nc1cccc(Nc2cc(Nc3cccc(C(F)(F)F)c3)ncn2)c1)C1CC1; value = 99%
Structure (SMILES) = COc1cc2nccc(Oc3ccc(NC(=S)NC(=O)c4ccccc4C)cc3)c2cc1OC; value = 97.3%
Structure (SMILES) = CN(C)c1ccc(C=C2C(=O)Nc3ccccc32)cc1; value = 98.6%
Structure (SMILES) = Cc1cccc(-c2[nH]c(C(C)(C)C)nc2-c2ccc3c(c2)OCO3)n1; value = 100%
Structure (SMILES) = CNC(=O)c1cc(Oc2ccc(NC(=O)Nc3ccc(Cl)c(C(F)(F)F)c3)cc2)ccn1; value = 103%
Structure (SMILES) = COc1cc2ncnc(Nc3ccc(F)c(Cl)c3)c2cc1OCCCN1CCOCC1; value = 117%
Structure (SMILES) = CCOC(=O)c1c(C)[nH]c(/C=C2\C(=O)Nc3ccccc32)c1C; value = 93.7%

Set 2
Target: Sal-like protein 4, full length isoform A (SALL4, Homo sapiens, UniProt Q9UJQ4, residues 1-1053)
Chain of UniProt Q9UJQ4 (whole entry, looked up): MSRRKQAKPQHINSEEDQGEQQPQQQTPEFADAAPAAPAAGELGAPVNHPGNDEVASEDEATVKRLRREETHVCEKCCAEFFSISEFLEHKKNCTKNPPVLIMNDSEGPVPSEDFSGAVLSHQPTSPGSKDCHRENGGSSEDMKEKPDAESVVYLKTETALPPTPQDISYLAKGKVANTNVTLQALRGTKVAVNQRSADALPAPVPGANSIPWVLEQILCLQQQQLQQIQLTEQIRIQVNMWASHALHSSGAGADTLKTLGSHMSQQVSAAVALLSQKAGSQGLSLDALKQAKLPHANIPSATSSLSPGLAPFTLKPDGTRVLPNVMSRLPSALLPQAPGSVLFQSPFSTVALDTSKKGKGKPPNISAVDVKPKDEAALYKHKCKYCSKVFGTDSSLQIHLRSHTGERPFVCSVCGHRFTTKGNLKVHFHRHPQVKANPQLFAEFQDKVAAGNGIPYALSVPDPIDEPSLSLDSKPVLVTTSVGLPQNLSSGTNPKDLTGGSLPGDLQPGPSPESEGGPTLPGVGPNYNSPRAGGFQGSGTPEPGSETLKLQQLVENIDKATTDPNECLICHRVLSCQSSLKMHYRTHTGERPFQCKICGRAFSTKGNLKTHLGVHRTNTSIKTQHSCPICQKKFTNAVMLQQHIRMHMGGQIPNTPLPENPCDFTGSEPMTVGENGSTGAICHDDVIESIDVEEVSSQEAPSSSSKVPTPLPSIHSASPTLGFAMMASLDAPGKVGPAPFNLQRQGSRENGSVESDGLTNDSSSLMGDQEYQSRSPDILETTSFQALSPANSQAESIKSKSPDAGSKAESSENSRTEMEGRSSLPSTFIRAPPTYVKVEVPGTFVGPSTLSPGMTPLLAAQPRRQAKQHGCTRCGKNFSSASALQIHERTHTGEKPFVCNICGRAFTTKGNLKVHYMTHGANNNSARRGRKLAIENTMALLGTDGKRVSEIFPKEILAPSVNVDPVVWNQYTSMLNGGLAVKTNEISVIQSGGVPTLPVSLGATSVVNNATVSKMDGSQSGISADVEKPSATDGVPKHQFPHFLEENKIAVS
Method: universal PBM
Form: double-stranded DNA, one strand shown
Matrix: in vitro
Tested at: 600 nM
Setting: 8-mer, flanks averaged, mean of replicates
Reading: higher = stronger binding
Measurement: E-score
Sequence = ACGATATC; value = 0.156
Sequence = GTCTTTGA; value = 0.11
Sequence = GACGTCCC; value = -0.341
Sequence = CCCAAGAG; value = -0.149
Sequence = CGTAATTA; value = 0.308
Sequence = ACGCCCGT; value = -0.187
Sequence = GTCTCCCA; value = -0.236
Sequence = AGGACTCG; value = -0.105

Set 3
Structure (SMILES): O=C(Nc1cnc(Oc2ccc(F)cc2)nc1)N1CCc2ncccc2[C@@H]1c1ccc(F)cc1
Tested at: 1 µM
Measurement: remaining binding
target = FLT3 (Homo sapiens, UniProt P36888, D835V); observed = cell-free assay; method = competition with immobilised ligand; value = 100%
target = IRAK3 (Homo sapiens, UniProt Q9Y616); observed = cell-free assay; method = competition with immobilised ligand; value = 100%
target = HIPK3 (Homo sapiens, UniProt Q9H422); observed = cell-free assay; method = competition with immobilised ligand; value = 90%
target = RIPK4 (Homo sapiens, UniProt P57078); observed = cell-free assay; method = competition with immobilised ligand; value = 100%
target = Aurora kinase B (AURKB, Homo sapiens, UniProt Q96GD4); observed = cell-free assay; method = competition with immobilised ligand; value = 80%
target = SIK1 (Homo sapiens, UniProt P57059); method = competition binding; value = 88%

Set 4
Target: Prothrombin, mature alpha-thrombin (F2, Homo sapiens, UniProt P00734)
Method: aptamer microarray, sandwich
Form: DNA with 2'F-ANA
Matrix: in vitro
Tested at: 200 nM
Setting: whole 15-mer aptamer, many near background
Added: Cy3 exosite-II aptamer, 400 nM
Reading: higher = stronger binding
Measurement: mean fluorescence intensity
Sequence: GGTTGGTGTGGTTGG
Modification = 2'F-ANA at 3 4 5 7 8 9 10 13 15; value = 104 a.u.
Modification = 2'F-ANA at 2 3 5 6 10 11 12 14; value = 47.8 a.u.
Modification = 2'F-ANA at 2 4 6 7 8 9 15; value = 321 a.u.
Modification = 2'F-ANA at 3 5 9 11 12 13 15; value = 179 a.u.
Modification = 2'F-ANA at 1 2 3 4 7 8 11 13 14 15; value = 69.9 a.u.
Modification = 2'F-ANA at 2 6 10 12 14; value = 101 a.u.
Modification = 2'F-ANA at 2 12 15; value = 784 a.u.
Modification = 2'F-ANA at 1 2 4 7 9 10 11 12 13 15; value = 62.3 a.u.
